# Experimental data collected from several papers.
# Every numbered part comes from another study and shows a few of its results, in no order. Positions count from the first letter of the parent shown.

# Study 1 — method: RNA Bind-n-Seq; form: RNA; sample: in vitro; concentration: 20 nM; notes: 6-mer, flanks averaged, single round; together with: 150 mM LiCl; relative to: input library; direction: higher = stronger binding
# Target: TAR DNA-binding protein 43, full length, His tag (TARDBP, Homo sapiens, UniProt Q13148, residues 1-414)
Strand,6-mer enrichment (R)
GAUGGA,1.05
GAGCGU,1.03
CAGAAC,0.848
CAGAGC,0.897
UCCGCC,0.933
AGGAAU,0.889
CGGUGC,0.982
UGGCGG,1.16

# Study 2 — target: inorganic phosphate, free oxyanion; method: microfluidic competitive inhibition; sample: in vitro, cell-free expressed; concentration: not given; direction: lower = stronger binding
# Notes: derived from inhibition constants, unchanged parent 615000 nM
# Parent: PafA, mature enzyme, eGFP fusion (Elizabethkingia meningoseptica, UniProt Q9KJX5); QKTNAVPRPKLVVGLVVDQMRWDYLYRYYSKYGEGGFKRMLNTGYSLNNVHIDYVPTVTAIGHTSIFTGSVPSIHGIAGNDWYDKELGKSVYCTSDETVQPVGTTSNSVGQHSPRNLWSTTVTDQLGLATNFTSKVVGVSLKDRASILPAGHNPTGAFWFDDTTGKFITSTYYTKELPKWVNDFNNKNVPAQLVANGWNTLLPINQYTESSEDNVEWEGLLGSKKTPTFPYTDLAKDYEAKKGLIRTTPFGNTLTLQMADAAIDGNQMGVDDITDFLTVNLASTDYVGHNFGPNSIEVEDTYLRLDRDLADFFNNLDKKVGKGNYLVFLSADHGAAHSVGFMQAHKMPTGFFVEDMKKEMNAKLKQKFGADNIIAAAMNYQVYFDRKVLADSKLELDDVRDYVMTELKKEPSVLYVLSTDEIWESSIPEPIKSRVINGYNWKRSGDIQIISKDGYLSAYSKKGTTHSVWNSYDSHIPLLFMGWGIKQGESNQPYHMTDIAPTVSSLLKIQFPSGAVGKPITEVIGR
Substitution,phosphate dissociation constant [µM]
W118V,528
G127A,510
S95V,1870

# Study 3 — target: CCNF, cyclin fold, Cln2 fusion (human); method: yeast growth competition, sequencing; sample: yeast; notes: strong parent motif; relative to: not given; direction: higher = stronger binding; parent: viral docking peptide; YKVKRRLVFGADD
Substitution,normalised enrichment score
V8C,8.9
F9C,4.12
R6S,8.53
V8F,9.98
K2T,8.56
K4M,8.78
V8R,9.31
K4V,9.17
R5L,1.97
R6W,6.08
D12G,9.11
D12C,8.77
L7M,2.07
R6Q,8.17
V8S,7.86
K4W,7.95
V3D,3.19
A11V,8.52
V3T,9.07
V3H,8.11
G10T,8.1
G10F,8.54
K4Q,8.53
R6M,9.31
K4G,8.72

# Study 4 — target: OGT, full length, His-tagged (human); method: phage display, sequencing; sample: in vitro; concentration: 1 µg OGT; relative to: input library; direction: higher = stronger binding; parent: peptide; TAPFYPPAYQIQVFK
# Notes: single substitutions, 15-mer displayed peptide, unchanged parent 19.6
Substitution,fold enrichment [fold]
P6F,3.58
P3H,17
P3N,23.5
Q12I,5.44
A2H,14
A2D,10.2
I11S,0.319
A8M,18.5

# Study 5 — method: Spec-seq; form: double-stranded DNA, one strand shown; sample: in vitro; concentration: not given; notes: whole probe, mean of replicates; relative to: not given; direction: lower = stronger binding; constant ends, left off below: GAGTCGTCTCGTCAGCAC … CCGTAGAGCACTCAGGTC
# Target: POU domain, class 5, transcription factor 1, POU domain (Pou5f1, Mus musculus, UniProt P20263, residues 131-289)
# UniProt P20263, sequence (131-289, looked up): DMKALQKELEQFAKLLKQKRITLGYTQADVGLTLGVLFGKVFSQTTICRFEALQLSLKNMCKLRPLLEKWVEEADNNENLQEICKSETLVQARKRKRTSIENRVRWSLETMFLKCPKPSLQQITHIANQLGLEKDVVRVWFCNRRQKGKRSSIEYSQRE
Strand,relative binding energy
ATCTAAAT,-0.585 ln ratio
AGGCTAAT,0.62 ln ratio
ATGCACTA,0.0463 ln ratio
ATTAGTAT,-0.142 ln ratio
TACATAAT,-0.671 ln ratio
ATGCAGTG,0.58 ln ratio
TGCATAAT,-1.71 ln ratio
TCTGTAAT,0.66 ln ratio
